Assay results gathered from unrelated publications.
Every numbered part comes from another study and shows a few of its results, in no order.

Study 1 — method: RNAcompete; molecule type: RNA; matrix: in vitro; tested at: 20 nM; notes: 7-mer, probes averaged, single round; reference: mean of 7-mers; reading: higher = stronger binding
Target: PABPC1L2, full length, GST fusion (mouse, UniProt A0ABA7IW68)
Residues (chain): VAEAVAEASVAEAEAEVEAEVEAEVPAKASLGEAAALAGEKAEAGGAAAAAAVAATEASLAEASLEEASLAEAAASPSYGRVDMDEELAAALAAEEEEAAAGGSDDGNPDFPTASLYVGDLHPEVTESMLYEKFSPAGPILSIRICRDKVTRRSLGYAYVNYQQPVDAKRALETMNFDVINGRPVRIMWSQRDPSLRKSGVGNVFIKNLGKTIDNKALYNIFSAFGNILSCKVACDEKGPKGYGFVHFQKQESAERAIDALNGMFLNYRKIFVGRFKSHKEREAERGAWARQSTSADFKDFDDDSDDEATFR
| Sequence | 7-mer Z-score |
| --- | --- |
| CCCCUUC | -0.476 |
| CUUGGGG | 0.075 |
| CUUGGUC | -0.244 |
| GUGUGAA | 0.0261 |
| UGACGAU | -0.0699 |
| CGAAGUU | -0.122 |
| CGAAUUG | -0.0754 |
| GGAAGGU | 0.000733 |
| UCAACUG | -0.237 |
| CUGAUAG | -0.267 |
| AGCCGAU | -0.159 |

Study 2 — method: RNA Bind-n-Seq; molecule type: RNA; matrix: in vitro; tested at: 1 µM; notes: whole 134-nt RNA, ends assumed; added: 150 mM KCl; reference: input library; reading: higher = stronger binding
Target: Ras GTPase-activating protein-binding protein 1, RRM domain (G3BP1, Homo sapiens, UniProt Q13283)
Chain of UniProt Q13283 (whole entry, looked up): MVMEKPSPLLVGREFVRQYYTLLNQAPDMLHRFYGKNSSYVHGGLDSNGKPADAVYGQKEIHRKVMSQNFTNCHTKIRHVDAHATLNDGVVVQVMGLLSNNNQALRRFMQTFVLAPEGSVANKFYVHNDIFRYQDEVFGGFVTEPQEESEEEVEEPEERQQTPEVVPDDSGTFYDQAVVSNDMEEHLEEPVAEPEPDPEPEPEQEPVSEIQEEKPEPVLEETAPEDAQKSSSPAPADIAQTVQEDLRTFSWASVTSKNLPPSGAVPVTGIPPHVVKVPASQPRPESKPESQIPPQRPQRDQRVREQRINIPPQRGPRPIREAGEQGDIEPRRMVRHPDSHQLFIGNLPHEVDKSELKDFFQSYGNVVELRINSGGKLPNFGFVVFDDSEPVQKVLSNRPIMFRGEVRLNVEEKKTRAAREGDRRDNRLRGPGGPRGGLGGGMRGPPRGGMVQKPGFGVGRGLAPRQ
| Sequence | log2 enrichment |
| --- | --- |
| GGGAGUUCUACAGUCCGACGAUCAGUCCUGUGCUACACAUCGUAUGUACCGAAUCGGGAAAAAGGGUUUGGGAAAAAGGGAAAGUAUUAUGUUACGCCGUUCGGAUCUGCACUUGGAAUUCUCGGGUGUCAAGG | 0.195 |
| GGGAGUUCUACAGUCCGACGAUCCUGUGCUACACAUCGUAUGUACCGAAUCGGGAAAAAAAGGGAAAAAAAGGGGAAAAAAAGGGAAAGUAUUAUGUUACGCCGUUCGGAUCUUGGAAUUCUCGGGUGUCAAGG | 0.245 |
| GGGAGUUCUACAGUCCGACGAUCAAGUCCUGUGCUACACAUCGUAUGUACCGAAUCGGAGGAAAAAAAGGAAAAAAAGGAAAGUAUUAUGUUACGCCGUUCGGAUCUGCACUUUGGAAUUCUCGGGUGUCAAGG | -0.0368 |
| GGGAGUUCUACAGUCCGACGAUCUAACUUUAGAGGAGGAUCGGAUGGAUAUGGCAGUGGACGUGGAUUUGGGGAUGGCUAUAAUGGGUAUGGAGGAGGACCUGGAGGUGGCAAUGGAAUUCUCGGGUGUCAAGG | -0.735 |
| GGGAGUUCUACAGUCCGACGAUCAGUCCUGUGCUACACAUCGUAUGUACCGAAUCGGGGUUUGGGGAAAGGGGAAAGGGGAAAGUAUUAUGUUACGCCGUUCGGAUCUGCACUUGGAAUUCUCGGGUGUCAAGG | 1.88 |
| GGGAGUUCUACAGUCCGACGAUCUCAAGUCCUGUGCUACACAUCGUAUGUACCGAAUCGGGAAGGGAAGGGGAAGGGAAAGUAUUAUGUUACGCCGUUCGGAUCUGCACUUCCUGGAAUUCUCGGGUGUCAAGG | 0.97 |
| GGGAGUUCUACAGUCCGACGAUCACCAUGCAGGUGGGCAUCUUUGGGAAGUGGGGCAAGGGGGGGAUAGGGAGGGGGGUAACAUUUUGGGAACAGGUGGUCCCAGGUCGUUUCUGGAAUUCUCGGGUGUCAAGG | 0.849 |
| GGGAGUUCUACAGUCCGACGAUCUGGGAGGUGGAUUUUGUUUAUUUUUUUAGCGCAUUUCCAGGGGUGGGAAUUUUUUUUUAAUAUGUGUCAUGAAUAAAGUUGUUUUUGAAAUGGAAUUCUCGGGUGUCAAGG | 2.21 |
| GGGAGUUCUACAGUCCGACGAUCAAGUCCUGUGCUACACAUCGUAUGUACCGAAUCGGGAAAGGGUUUGGGAAAAAGGGAAAGUAUUAUGUUACGCCGUUCGGAUCUGCACUUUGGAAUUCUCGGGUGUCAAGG | 0.418 |

Study 3 — method: RNA Bind-n-Seq; molecule type: RNA; matrix: in vitro; tested at: not given; reference: input RNA pool; reading: higher = stronger binding
Target: RING finger protein unkempt homolog, zinc fingers 1-6, GST-SBP tag (UNK, Homo sapiens, UniProt Q9C0B0, residues 30-357)
Notes: RNA with constant flanks, human-mouse chimeric sites, ends assumed
Construct (chain): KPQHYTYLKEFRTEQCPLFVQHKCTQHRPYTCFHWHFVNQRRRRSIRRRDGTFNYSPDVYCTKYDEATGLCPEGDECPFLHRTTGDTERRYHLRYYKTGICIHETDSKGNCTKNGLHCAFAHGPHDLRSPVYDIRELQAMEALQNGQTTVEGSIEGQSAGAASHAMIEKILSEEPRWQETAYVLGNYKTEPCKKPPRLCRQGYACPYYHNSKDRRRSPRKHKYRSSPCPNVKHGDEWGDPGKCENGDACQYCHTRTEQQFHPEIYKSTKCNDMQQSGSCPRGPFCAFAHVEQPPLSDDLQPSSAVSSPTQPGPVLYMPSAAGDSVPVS
| Sequence | bound/input enrichment |
| --- | --- |
| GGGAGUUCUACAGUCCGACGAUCUUGAAAACUGAUUCAAGUAAGUUUGAGUAUCACAAUGUUAGCUUUCUAAUUCCAUAAAAGUACUUGGUACAGUUUCUUUAUAAUCUGCAAUCCAUCAAGCGCCAUUUGUAAAGAGCAACUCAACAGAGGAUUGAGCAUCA | 0.491 ratio |
| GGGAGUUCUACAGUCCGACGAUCGCUCCUCCCCGCUCUGCAGCCUGGGGACACUGGGCUGCAUUUUUUUUCCAGCUUUCUUUUAAAACUCUCAGUGUAACUGUAUCCCGUUUUUUUCUUUUUUUUUUAAAUAGUGUAUUUUUUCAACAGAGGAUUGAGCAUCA | 31.9 ratio |
| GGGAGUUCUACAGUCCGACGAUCAGAAUCUUGGGACUGUUUUACUUAAUUGGUCAUUGAUAGCUUAACAAACAUGGAGAUAAGAUUAGAAAUCUUGACAUCAACAGGUAUCAAGCAGAAAAAACCCUGGCCACGUGUCUCCUGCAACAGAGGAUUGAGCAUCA | 0.167 ratio |
| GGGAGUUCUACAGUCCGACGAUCUGACAAGGGCACUGCAGAGCCAUGCCUUUCCUUGACAUCCAGAAAAGGCUGGGCAUCAGCCUGGACCGGCACUUUAUGUUCCUAAGCGCAGAACAGCCCUAUAAGAACGCCGCUCGGUGCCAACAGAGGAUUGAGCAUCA | 0.0517 ratio |
| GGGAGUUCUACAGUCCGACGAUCUUAAUCCCCUUCGUUGCUCCCCCACUUCUCAUGGUAAUGACAAAAACUUAUAUCCCCGUCCUAGCUUUCACUCAGAUGGCUUAUGGAGCCGGUUUCCUAGCUUUCUUGGGAGGGAUCAGACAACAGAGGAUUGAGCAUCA | 0.369 ratio |
| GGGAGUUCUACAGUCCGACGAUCGAUAAGAAAAACUUGUUGGAGACCCGAUUGCAUGUCACUGGUAGAGACCUGAGGUGUCAAAUAGCUGAAACUUUCGGAUUUCAAGAAAAUUACAUCAAGAUCGUAAUAAAUAAGAAACAGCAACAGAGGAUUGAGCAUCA | 0.229 ratio |
| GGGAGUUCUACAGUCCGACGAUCAGAAUCUUGGGACUGUUUUACUUAAUUGGUCAUUGAUAUCUCAACAAACAUGGAGAUAAGAUUAGAAAUCUUGACAUCAACAGGUAUCAAGCAGAAAAAACCAUGGCCACGUGUCUCCUGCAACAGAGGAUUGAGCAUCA | 0.132 ratio |
| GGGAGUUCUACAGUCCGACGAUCUCUUAACUUAUUCAUUUAACUUAUUUUUAUAGCUAGAUAAAUAUUGUUAGUCUUAGACAAUAGCUCACAUUUUUUGAGAAGCAUGCCCUCCCUAUCCAUUUGUCUUAUAACAUGACCCAGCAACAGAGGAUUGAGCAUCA | 7.83 ratio |

Further values, each from its own experiment
| Molecule | target | assay | system | conditions | how to read | measurement | value |
| --- | --- | --- | --- | --- | --- | --- | --- |
| PhoQ, residues 284 288 289 292 302 303 SCCLKL | PhoP, residues 12 14 15 18 19 SFCSL (Escherichia coli, UniProt P23836) | Sort-seq, refers to: YFP reporter | E. coli | PhoQ-PhoP variant library, added: 10 µM Mg2+ | reference: high Mg2+ state, higher = stronger signaling | fold induction | 8.45 |

Excerpt of the above (study 1):
| Sequence | 7-mer Z-score |
| --- | --- |
| UGACGAU | -0.0699 |
| CGAAGUU | -0.122 |
